Results of several laboratories.
“And” joins repeats or separate records; there may be more than shown.
KIT: Mast/stem cell growth factor receptor Kit (KIT, Homo sapiens, UniProt P10721)
KIT autoinhibited: Mast/stem cell growth factor receptor Kit, autoinhibited (KIT, Homo sapiens, UniProt P10721)
KIT D816V: Mast/stem cell growth factor receptor Kit (KIT, Homo sapiens, UniProt P10721, D816V)
KIT A829P: Mast/stem cell growth factor receptor Kit (KIT, Homo sapiens, UniProt P10721, A829P)
KIT D816H: Mast/stem cell growth factor receptor Kit (KIT, Homo sapiens, UniProt P10721, D816H)

Structure (SMILES) | target | test | conditions | scale | endpoint | result
CCn1cc(C(=O)O)c(=O)c2c(N)c(F)c(NC3CCCCC3)cc21 | KIT | kinase activity | 0.1 µM, together with: ATP at Km |  | inhibition | -11.4%
C=CC(=O)N1CCc2ccc(-n3c(=O)ccc4cnc5ccc(-c6cnn(C)c6)cc5c43)cc21 | KIT autoinhibited | KINOMEscan | 1 µM | reference: DMSO control | remaining binding | 98%
C[C@H]1CN(C(=O)c2cn(-c3ccnc(N)n3)c3cc(C#CC4(O)CCCCC4)ccc23)CCN1 | KIT | enzyme activity, inhibitor, FRET | 1 µM |  | inhibition | 1%
CN1CC[C@@H](COc2cnc(C#N)cc2-c2ccn3nc(NC(=O)C4CC4)cc3c2)C1 | KIT | enzyme activity, inhibitor | 1 µM |  | inhibition | 1%
COc1cc(OC)c(F)c(/C=C/c2cnc3ccn(S(=O)(=O)c4cn(CCF)cn4)c3n2)c1F | KIT |  | 100 nM |  | inhibition | 3.1%
COc1c(OCCCN2CCOCC2)ccc2c1N=C(NC(=O)c1cnc(N)nc1)N1CCN=C21 | KIT | kinase activity, inhibitor | 1 µM | reference: untreated control | remaining activity | 121%
Cc1ccc(-c2c(/C=C(\C#N)C(=O)NC(C)C)n(CCCO)c3ncnc(N)c23)cc1 | KIT (Homo sapiens, UniProt P10721, T670I/V559D) | enzyme activity, inhibitor | 1 µM |  | remaining activity | 95%
C=CC(=O)Nc1cccc(-c2cnc3[nH]cc(C(=O)NC(C)(C)C)c3n2)c1 | KIT | enzyme activity, inhibitor | 0.1 µM |  | inhibition | -6%
C=C1CCCCCCCCCC(CO)C1=O (stereo not drawn) | KIT D816V | cell-free assay | 10 µM |  | remaining signal | 100%
Cc1cnc2nc1Nc1cccc(c1)COC/C=C/COCc1cc(ccc1OCCN1CCOCC1)N2 | KIT autoinhibited | binding | 0.1 µM |  | remaining binding | 74%
CNC(=O)C[C@H](Cc1ccc(C#N)cc1)NC(=O)c1cc(-c2ccc(CN[C@H](C)c3ccc(C)cc3)o2)ccc1Cl | KIT | enzyme activity, inhibitor | 1 µM |  | activity vs control | 121%
C=CC(=O)N1CCCC(n2c(=O)c3ncccc3n(Cc3ccc(Oc4ccccc4)cc3)c2=O)C1 (stereo not drawn) | KIT A829P | cell-free assay, competition with immobilised ligand | 1 µM |  | remaining binding | 74%
Cc1cccc(O[C@H]2CCC[C@@H](C(C)CNCc3ccncc3)C2)c1 (relative stereo) | KIT | enzyme activity, inhibitor | 1 µM |  | inhibition | 3%
NC(=O)[C@@H](O)C[C@H]1CCc2sc3ncnc(O[C@H]4CC[C@H](N5CCOCC5)CC4)c3c21 | KIT | enzyme activity, inhibitor | 10 µM |  | inhibition | 0%
O=C=[N][Ru-4]123([n]4c5ccc(O)cc5c5c6c(c7cc(F)c[n+]1c7c54)C(=O)NC6=O)[S+]1CC[S+]2CC[S+]3CC1 (stereo not drawn) | KIT D816V | enzyme activity | 100 nM, human enzyme, together with: 10 µM ATP | reference: untreated | remaining activity | 103%
CNC(=O)C1CCN(c2cc(C)c(F)cc2NC(=O)c2ccc(-c3cc(O)ccc3C)c(C)c2)CC1 | KIT D816H | binding, competition with immobilised ligand | 1 µM |  | remaining binding | 40%
Cc1nc2c(F)cc(-c3nc(Nc4ccc(CNC(=O)CCCCCCC(=O)NO)cc4)ncc3F)cc2n1C(C)C | KIT D816V | enzyme activity, inhibitor | 1 µM |  | inhibition | 27%
CCN1CCN(Cc2ccc(C(=O)Nc3ccc(C)c(NCc4cnc5[nH]ccc5c4OC)c3)cc2C(F)(F)F)CC1 | KIT autoinhibited | binding, competition with immobilised ligand | 1 µM |  | remaining binding | 78%
CNC1C[S+]2CC[S+]3CC[S+](C1)[Ru-4]321([N]=C=S)[n]2c3ccc(OC)cc3c3c4c(c5cc(F)c[n+]1c5c32)C(=O)NC4=O (stereo not drawn) | KIT (Homo sapiens, UniProt P10721, L576P) | KinomeScan | 0.1 µM | reference: untreated | remaining binding | 56%
CC(C)=CC1OC(C)(C)C2C=C3C(=O)C(Cl)=CC(O)C3C3C(O)C4OC4C(=O)C132 (stereo not drawn) | KIT D816H | cell-free assay, competition with immobilised ligand | 10 µM |  | remaining binding | 70%
COCC12C(=O)NC3C4(C(OC)CC1O)C1CC5(O)C(OC)C(O)C(OC(C)=O)(C1C5OC(=O)c1ccccc1)C3(O)C(OC)C24 (stereo not drawn) | KIT | kinase activity, inhibitor, ProQinase kinase profiling | 25 µM | reference: control | remaining activity | 111% and 118%
Nc1ncc2c(n1)-c1c([nH]c3ccc(C4=CCOCC4)cc13)CCC2 | KIT A829P | binding, competition with immobilised ligand | 1 µM |  | remaining binding | 91%
COc1c(Cl)cccc1Nc1c(-c2ccncc2C#C[C@@]2(C)CCCN2C(=O)/C=C/CN(C)C)[nH]c2c1C(=O)NCC2 | KIT (Homo sapiens, UniProt P10721, V559D) | binding, competition with immobilised ligand | 3 µM |  | remaining binding | 96%
CN1CCN(c2ccc(Nc3ncc(Cl)c(Nc4ccccc4P(C)(C)=O)n3)cc2Br)CC1 | KIT | enzyme activity, inhibitor | 0.1 µM |  | inhibition | 26%
